Measured values gathered from unrelated publications.
Compare with care: the assays were run in different laboratories. ± gives the spread as reported.
Sequence of UniProt P37136 (whole entry, looked up): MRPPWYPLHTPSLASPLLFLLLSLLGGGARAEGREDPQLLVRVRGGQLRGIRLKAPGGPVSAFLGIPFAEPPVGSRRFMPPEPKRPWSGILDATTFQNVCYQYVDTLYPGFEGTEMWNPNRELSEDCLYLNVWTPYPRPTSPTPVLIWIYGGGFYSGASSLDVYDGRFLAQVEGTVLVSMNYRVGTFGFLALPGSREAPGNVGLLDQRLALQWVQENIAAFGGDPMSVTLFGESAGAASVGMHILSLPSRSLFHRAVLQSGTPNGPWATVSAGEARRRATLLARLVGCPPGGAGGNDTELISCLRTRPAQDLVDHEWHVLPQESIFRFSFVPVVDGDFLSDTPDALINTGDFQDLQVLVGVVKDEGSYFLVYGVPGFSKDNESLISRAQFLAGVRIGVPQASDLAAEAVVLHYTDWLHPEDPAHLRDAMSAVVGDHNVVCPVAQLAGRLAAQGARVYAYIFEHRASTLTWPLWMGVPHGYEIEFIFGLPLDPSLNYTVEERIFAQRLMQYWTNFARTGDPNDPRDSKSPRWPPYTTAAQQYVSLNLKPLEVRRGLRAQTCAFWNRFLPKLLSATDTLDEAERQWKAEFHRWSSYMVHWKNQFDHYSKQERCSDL

Molecule | tested on | test | system | conditions | endpoint | result
chicoric acid |  | UPLC | broiler chicken, plasma | oral gavage, 20 mg/kg | Vz/F | 251 ± 75.2 L/kg
semaglutide |  | measured: drug dose increased | human, safety analysis set | concentration not given, 32 weeks, run-in | participants with adverse events | 3.1%
phoxim-oxon | Acetylcholinesterase (Ache, Rattus norvegicus, UniProt P37136) | inhibitor | rat, postnatal day 1, rat skeletal muscle homogenate | 15 min, 37 °C | IC50 | 14 nM
deucravacitinib |  |  | human | oral, 3 mg, single dose | Tmax | 1 h
maraviroc |  |  | black CYP3A5 extensive metabolizers, plasma | 300 mg twice daily | C12 | 45.3 ng/mL

For quick reference, copied from above:
Molecule | tested on | test | system | conditions | endpoint | result
semaglutide |  | measured: drug dose increased | human, safety analysis set | concentration not given, 32 weeks, run-in | participants with adverse events | 3.1%
